Published values collected from several papers.
Lines come from different studies, so protocols differ. ± gives the spread as reported.

SMILES | test | system | conditions | scale | endpoint | value
O=S(=O)([O-])C(F)(F)C(F)(F)C(F)(F)C(F)(F)C(F)(F)C(F)(F)C(F)(F)C(F)(F)F.[K+] | LC-ESI-MS/MS | mouse, EtOH-fed or pair-fed, liver | oral gavage, 1 mg/kg/day, 10 days | reference: dose | fraction of dose in liver | ~60%
CC(C)C[C@@H]1NC(=O)CNC(=O)[C@H](CCCCN)NC(=O)[C@H](CCCNC(=N)N)NC(=O)[C@H]([C@@H](C)O)NC(=O)[C@@H]2CSSC[C@@H]3NC(=O)[C@H]([C@@H](C)O)NC(=O)CNC(=O)CNC(=O)[C@H](C(C)C)NC(=O)[C@@H]4CSSC[C@H](NC(=O)[C@H](CCCCN)NC(=O)[C@H](CSSC[C@H](NC(=O)[C@H](C(C)C)NC(=O)[C@@H]5CCCN5C1=O)C(=O)NCC(=O)N[C@@H](CCC(=O)O)C(=O)N[C@@H]([C@@H](C)O)C(=O)N4)NC(=O)CNC(=O)[C@@H]1CCCN1C(=O)[C@H]([C@@H](C)O)NC(=O)[C@H](CC(N)=O)NC3=O)C(=O)N[C@@H](CO)C(=O)N[C@@H](Cc1c[nH]c3ccccc13)C(=O)N1CCC[C@H]1C(=O)N[C@@H](C(C)C)C(=O)N2 | HPLC | water | 180 µM, 14 days, 37 °C, deamidation stability | – | remaining peptide | 100%
N.N.O=C([O-])C1(C(=O)[O-])CCC1.[Pt+2] | ICP-MS platinum, refers to: platinum | human patients, plasma ultrafiltrate | dose not given, carboplatin target AUC 3, cycle 1 day 1 | – | AUC(0-48 h) | 64.5 µg·h/mL
CC(=O)N(N(CCCl)S(C)(=O)=O)S(C)(=O)=O | – | CD2F1 female mice, L1210 leukemia | ip, 60 days, single dose | – | first toxic death dose | 60 mg/kg
C[C@@H](NC(=O)N1C(=O)[C@H](Cc2ccnc(N)c2)[C@H]1C(=O)O)C1CCCCC1 | – | healthy adult Chinese volunteers | continuous intravenous infusion, 0.6 mg/kg/h, 5-day infusion, CTCAE 5.0 grading | – | incidence of decreased neutrophil | 0%
c1ccc2c(c1)-c1cccc3c1c-2cc1ccccc13 | – | fresh water | 12 (unit not given), 20 °C, S100 sampler, 100 µm | – | log K(PDMS-water) | 5.18 ± 0.01
CCc1ccc(CC/C=C/c2ccc3c(c2)C(=O)CC3)cc1 | – | Sprague-Dawley rat, female, serum | oral, 30 mg/kg/day, 14 days | – | chloride | 106 mM
O=[N+]([O-])c1ccc2c(c1)S(=O)(=O)C=C2 | – | male C57BL/6 mice, blood | intraperitoneal, 10 mg/kg, day 8, group average | – | red cell distribution width CV | 0.15%
N.N.[Cl][Pt][Cl] | – | mouse xenograft model | dose not given, day 8, group mean | – | body weight | 20.4 g
CCS(=O)(=O)Nc1ccc(Oc2ccc(F)cc2F)c(-c2cn(C)c(=O)c3[nH]ccc23)c1 | serious respiratory distress | human, relapsed/refractory AML | oral, dose not given | – | treatment-emergent adverse events | 11%
CC(=O)c1c(C)c2cnc(Nc3ccc(C4CCN(CCS(C)(=O)=O)CC4)cn3)nc2n(C2CCCC2)c1=O | – | mice plasma | – | – | unbound fraction | 0.023
CC(C)C[C@@H]1NC(=O)CNC(=O)[C@H](CC(N)=O)NC(=O)[C@H](CCCNC(=N)N)NC(=O)[C@H]([C@@H](C)O)NC(=O)[C@@H]2CSSC[C@@H]3NC(=O)[C@H]([C@@H](C)O)NC(=O)CNC(=O)CNC(=O)[C@H](C(C)C)NC(=O)[C@@H]4CSSC[C@H](NC(=O)[C@H]([C@@H](C)O)NC(=O)[C@H](CSSC[C@H](NC(=O)[C@H](C(C)C)NC(=O)[C@H](CCCCN)NC1=O)C(=O)NCC(=O)N[C@@H](CCC(=O)O)C(=O)N[C@@H]([C@@H](C)O)C(=O)N4)NC(=O)CNC(=O)[C@@H]1CCCN1C(=O)[C@H]([C@@H](C)O)NC(=O)[C@H](CC(N)=O)NC3=O)C(=O)N[C@@H](CO)C(=O)N[C@@H](Cc1c[nH]c3ccccc13)C(=O)N1CCC[C@H]1C(=O)N[C@@H](C(C)C)C(=O)N2 | HPLC | water | 180 µM, 14 days, 37 °C, deamidation stability | – | remaining peptide | 97.7 ± 0.2%
CCCCCCCCCCCCCCCC(=O)N[C@@H](CCC(=O)NCCCC[C@H](NC(=O)[C@H](CC(=O)O)NC(=O)[C@H](CO)NC(=O)[C@@H](NC(=O)[C@H](Cc1ccccc1)NC(=O)[C@@H](NC(=O)CNC(=O)[C@H](CCC(N)=O)NC(=O)[C@H](CO)NC(=O)[C@@H](N)Cc1c[nH]cn1)[C@@H](C)O)[C@@H](C)O)C(=O)N[C@@H](CO)C(=O)N[C@@H](CCC(=O)O)C(=O)N[C@@H](Cc1ccc(O)cc1)C(=O)N[C@@H](CC(C)C)C(=O)N[C@@H](CC(=O)O)C(=O)N[C@@H](CO)C(=O)N[C@@H](CCC(=O)O)C(=O)N[C@@H](CCCNC(=N)N)C(=O)N[C@@H](C)C(=O)N[C@@H](CCCNC(=N)N)C(=O)N[C@@H](CC(=O)O)C(=O)N[C@@H](Cc1ccccc1)C(=O)N[C@H](C(=O)N[C@@H](C)C(=O)N[C@@H](Cc1c[nH]c2ccccc12)C(=O)N[C@@H](CC(C)C)C(=O)N[C@@H](CCC(=O)O)C(=O)N[C@@H](C)C(=O)NCC(=O)NCC(=O)O)C(C)C)C(=O)O | refers to: Vomiting | humans CrCl 20 to 30 mL/min | subcutaneous, 100 µg single dose | – | treatment-related adverse events | 50%
C[C@@H]1NC(=O)[C@H](CCCCNC(=O)CO/N=C/C(=O)NCCCC[C@@H]2NC(=O)[C@@H](Cc3ccccc3)NC(=O)[C@H](CC(=O)O)NC(=O)CNC(=O)[C@H](CCCNC(=N)N)NC2=O)NC(=O)CNC(=O)[C@@H]2CCCN2C(=O)[C@H](CCCCNC(=O)CO/N=C/C(=O)NCCCC[C@@H]2NC(=O)[C@@H](Cc3ccccc3)NC(=O)[C@H](CC(=O)O)NC(=O)CNC(=O)[C@H](CCCNC(=N)N)NC2=O)NC(=O)[C@H](CCCCNC(=O)CN2CCCNCCNCCCNCC2)NC(=O)[C@H](CCCCNC(=O)CO/N=C/C(=O)NCCCC[C@@H]2NC(=O)[C@@H](Cc3ccccc3)NC(=O)[C@H](CC(=O)O)NC(=O)CNC(=O)[C@H](CCCNC(=N)N)NC2=O)NC(=O)CNC(=O)[C@@H]2CCCN2C(=O)[C@H](CCCCNC(=O)CO/N=C/C(=O)NCCCC[C@@H]2NC(=O)[C@@H](Cc3ccccc3)NC(=O)[C@H](CC(=O)O)NC(=O)CNC(=O)[C@H](CCCNC(=N)N)NC2=O)NC1=O [copper-64 labelled] | – | normal mice, pancreas | intravenous, 0.74 MBq, 24 h post-injection | – | tissue uptake | 0.42 ± 0.06 %ID/g
O.O.O.O.O.O.[Cl-].[Cl-].[Co+2] | – | Crl:CD(SD) rat male, blood | oral, 0.74 mg Co/kg/day, 90 days | reference: red blood cells | reticulocytes | 15.2%
O=S(=O)(Nc1ccccc1)c1ccc(NC(=S)Nc2ccccc2)cc1 | – | male mouse, blood | oral, 20 mg/kg daily, 14 days | – | haematocrit | 44.5%
CC/C(=C(\c1ccccc1)c1ccc(OCCN(C)C)cc1)c1ccccc1 | – | CD-1 mouse, male, lung | intraperitoneal, 30 mg/kg | – | Tmax | 6 h
CC(C)(C)c1cc(-n2nc3ccccc3n2)c(O)c(C(C)(C)C)c1 | exposure assessment | human, age 2-3 years | spray sunscreen | – | mean daily dermal uptake | 5.93 ng/kg body weight/day
Cc1ccc(F)c2cc(C(=O)N[C@@H]3CCC[C@H](N4CC[C@H](N(C)S(C)(=O)=O)C4)C3)[nH]c12 | – | CD1 mouse | oral, 30 mg/kg | – | fraction absorbed | 0.7
O=C(Nc1ccccc1)C1CCN(C(=O)Oc2cccnc2)CC1 | adverse event reporting | healthy women | oral, 100 mg, 9 days | – | subjects with cardiac disorders | 0%

SMILES | test | system | conditions | scale | endpoint | value
Nc1nc2cc(-c3ccc4ncc(C(=O)N5CCOCC5)n4c3)ccc2o1 | – | human, advanced solid tumours | 100–300 mg once daily, any cause, grade ≥3 | – | elevated ALT adverse events | 13%
Clc1cc(Cl)c(-c2ccc(Cl)c(Cl)c2Cl)cc1Cl | – | fresh water | 20 °C, S30-2 sampler, 30 µm | – | log K(PDMS-water) | 6.43 ± 0.05
[O-][S+]1CCc2nc(N3CCC(c4ncc(Cl)cn4)CC3)nc(NC3(CO)CCC3)c21 (stereo not drawn) | – | idiopathic pulmonary fibrosis patients | 18 mg twice daily | – | Headache adverse events | 10%
COc1ncccc1-c1cnn2ccc(N3CCN(C(=O)OC(C)C)CC3)nc12 | – | rat rotarod, plasma | 30 mg/kg, 180 min | – | free concentration | 0.084 µM
c1ccc2cc3c(cc2c1)-c1cccc2cccc-3c12 | – | fresh water | 12 (unit not given), 20 °C, S30-1 sampler, 30 µm | – | log K(PDMS-water) | 5.23 ± 0.05
CO[C@H]1C[C@@H]2CC[C@@H](C)[C@@](O)(O2)C(=O)C(=O)N2CCCC[C@H]2C(=O)O[C@H]([C@H](C)C[C@@H]2CC[C@@H](OC(=O)NCCOCCOCCOCCOCCOCCOCCOCCOCCC(=O)N3CCc4cc(Cn5nc(-c6ccc7oc(N)nc7c6)c6c(N)ncnc65)ccc4C3)[C@H](OC)C2)C[C@@H](O)[C@H](C)/C=C(\C)[C@@H](O)[C@@H](OC)C(=O)[C@H](C)C[C@H](C)/C=C/C=C/C=C/1C | – | patients with advanced solid tumours | intravenous, 16 mg weekly, any grade | – | dyspnoea incidence | 50%
Cn1cc(-c2nc(N[C@@H]3CCCC[C@@H]3N)c(F)c3c2C(=O)NC3)cn1 | refers to: Retinal haemorrhage | patients with relapsed or refractory AML | oral, dose not given, all doses | – | hemorrhagic adverse events | 7%
CCOc1cc(Oc2ccc(C(F)(F)F)cc2Cl)ccc1[N+](=O)[O-] | – | rat, female | 125 mg/kg, 4 days | – | body weight gain | 25.7%
COc1cccc2c1CCCC2CCCN1CCN(C2CCCCC2)CC1 (stereo not drawn) | – | CD-1 mouse, male, lung | intraperitoneal, 3 mg/kg | – | elimination rate constant | 8.92e-05 s⁻¹
COc1cccc(-c2ccnc(Nc3ccc(N4CCN(C)CC4)c(C(F)(F)F)c3)n2)c1 | – | zebrafish embryos | 25 µM, 5 d | – | toxicity | 0%
Clc1ccc(Cl)c(-c2cc(Cl)c(Cl)cc2Cl)c1 | – | fresh water | 20 °C, S100 sampler, 100 µm | – | log K(PDMS-water) | 5.94 ± 0.04
CC1(C)[C@H](C=C(Cl)Cl)[C@H]1C(=O)OCc1cccc(Oc2ccccc2)c1 | – | pooled human liver cytosol | – | – | CLint | 1100 µL/min/mg
O=C(O)CCCOc1ccc(F)cc1-c1cc(-c2ccccc2C(F)(F)F)n(-c2ccccc2)n1 | refers to: TG | Crl:CD(SD) rats, male, blood | iv, 25 µg/kg, 14 days | – | blood chemistry | 30.9 ± 5.1 mg/dL
N=C(N)NCCC[C@@H](NC(=O)[C@@H](N)Cc1ccccc1)C(=O)N[C@@H](Cc1ccccc1)C(=O)N[C@@H](CCCCN)C(N)=O | LC-MS | human | 15 mg, 11.83 h | – | median fraction excreted in urine | 8.01%
CC(C)(O)c1cc(Nc2cc(Oc3cn(C4CC4)nc3C3CCOCC3)ccn2)ccn1 | refers to: Cough | patients with advanced cancer | oral | – | treatment-emergent adverse events | 0%
CCCCCCCCCOC(=O)CCCCCCCN(CCO)CCCCCCCC(=O)OC(CCCCCCCC)CCCCCCCC | refers to: IL-6, MCP-1, ALT, AST | BALB/c mice | intravenous, 6 mg/kg siRNA, 6 h cytokines, 24 h ALT/AST, LNP formulation | – | tolerability | not toxic
COc1ccc2c(c1)CN(C(=O)CCN1CCC(Cc3ccccc3)CC1)CC[S@@+]2[O-] | – | female Beagle dogs, chronic AV block, plasma | intravenous, 3 mg/kg, end of 10 min infusion | – | plasma concentration | 2.14 ± 0.273 µg/mL
COc1ccc2nc3cc(Cl)ccc3c(Nc3cc(CN4CCCC4)c(O)c(CN4CCCC4)c3)c2n1 | – | mouse, blood | intraperitoneal, 28 mg/kg | – | haematocrit | 44%
COc1cc2c(Oc3ccc4[nH]c(C)cc4c3F)ccnc2cc1OCC1(N)CC1 | – | paediatric recurrent refractory sarcoma | 12 mg | – | Headache incidence | 27.3%
